Published values collected from several papers.
Each line is one published result; not all experiments were run side by side.

Structure (SMILES) | organism | assay | system | conditions | MIC
CC(C)C[C@H](NC(=O)[C@@H](NC(=O)[C@H](CCCNC(=N)N)NC(=O)[C@H](CCC(N)=O)NC(=O)[C@H](Cc1ccccc1)NC(=O)[C@H](Cc1ccc(O)cc1)NC(=O)[C@H](CC(N)=O)NC(=O)[C@H](Cc1c[nH]c2ccccc12)NC(=O)[C@@H](NC(=O)[C@H](CCCNC(=N)N)NC(=O)[C@H](CCCCN)NC(=O)[C@@H](N)Cc1ccccc1)C(C)C)C(C)C)C(=O)N[C@H](C(=O)N[C@@H](CCCCN)C(=O)N[C@@H](CCCCN)C(N)=O)C(C)C | Enterobacter sp. | broth dilution | KCTC 2625 |  | > 100 µM
CC1(C)SC2C(NC(=O)C(NC(=O)C3=C(O)CN(c4ccccc4)C3=O)c3ccccc3)C(=O)N2C1C(=O)O (stereo not shown) | Escherichia coli | broth microdilution | Keio mutant JW5086-3 | 18 h, ferrienterobactin permease gene | 100 µg/mL
CC[C@H](C)[C@H](NC(=O)[C@H](CCCCN)NC(=O)[C@H](CCCCN)NC(=O)[C@H](Cc1ccccc1)NC(=O)[C@@H](NC(=O)[C@@H](NC(=O)[C@H](CCCNC(=N)N)NC(=O)[C@H](Cc1ccccc1)NC(=O)[C@@H](NC(=O)[C@H](CCCCN)NC(=O)[C@H](CCCCN)NC(=O)[C@@H](N)CCSC)[C@@H](C)CC)C(C)C)[C@@H](C)CC)C(=O)N[C@@H](CC(C)C)C(=O)N[C@@H](CCCCN)C(=O)N[C@@H](CCCNC(=N)N)C(=O)N[C@@H](CC(C)C)C(=O)N[C@H](C(=O)N[C@H](C(=O)O)C(C)C)[C@@H](C)CC | Staphylococcus aureus | broth microdilution | ATCC 25923 | together with: 2 mM CaCl2 | 8 µg/mL
[O-][N+]1=C(c2ccc(Cl)cc2)C2=NCCN2c2ccccc21 | Fusobacterium nucleatum |  |  |  | 0.06 to 0.125 µg/mL
Oc1c(Cl)cc(Cl)cc1-c1[nH]c(Cl)c(Cl)c1Cl | Providencia alcalifaciens |  | ATCC 9886 |  | 16 µM
CC(C)C[C@H](NC(=O)[C@H](CCCNC(=N)N)NC(=O)[C@H](Cc1c[nH]c2ccccc12)NC(=O)[C@H](CCCNC(=N)N)NC(=O)[C@H](Cc1c[nH]c2ccccc12)NC(=O)[C@H](Cc1c[nH]c2ccccc12)NC(=O)[C@H](Cc1c[nH]c2ccccc12)NC(=O)[C@H](CCCNC(=N)N)NC(=O)[C@H](Cc1c[nH]c2ccccc12)NC(=O)[C@@H](N)CCCNC(=N)N)C(N)=O | Candida albicans | broth microdilution | CGMCC 2.209, RPMI 1640-MOPS | 48 h, 30 °C, together with: CaCl2 2 mM | 32 µM
CC(C)C1NC(=O)C(C(=O)NC(C(=O)NC2C(=O)N3C2SC(C)(C)C3C(=O)O)c2ccccc2)=C1O (stereo not shown) | Escherichia coli | broth microdilution | Keio mutant JW0146-2 | 18 h, ferric hydroxamate uptake gene | 25 µg/mL
N=C(N)NCCC[C@H](NC(=O)CN)C(=O)N[C@@H](Cc1c[nH]c2ccccc12)C(=O)N[C@@H](CCCNC(=N)N)C(=O)N[C@@H](Cc1c[nH]c2ccccc12)C(=O)N[C@@H](Cc1c[nH]c2ccccc12)C(=O)N[C@@H](Cc1c[nH]c2ccccc12)C(=O)N[C@@H](CCCNC(=N)N)C(=O)N[C@@H](Cc1c[nH]c2ccccc12)C(=O)N[C@@H](CCCNC(=N)N)C(=O)N[C@@H](Cc1c[nH]c2ccccc12)C(N)=O | Candida albicans | broth microdilution | 56467, RPMI 1640-MOPS | 48 h, 30 °C | 8 µM
CC1(C)SC2C(NC(=O)C(NC(=O)C3=C(O)C(c4ccccc4)NC3=O)c3ccccc3)C(=O)N2C1C(=O)O (stereo not shown) | Escherichia coli | broth microdilution | Keio mutant JW5195-1 | 18 h | 12.5 µg/mL
N=C(N)NCCC[C@H](NC(=O)CCCCCNC(=O)[C@H](CCCNC(=N)N)NC(=O)[C@H](CCCNC(=N)N)NC(=O)CCCCCNC(=O)[C@H](CCCNC(=N)N)NC(=O)[C@H](CCCNC(=N)N)NC(=O)CCCCCNC(=O)[C@H](CCCNC(=N)N)NC(=O)[C@H](CCCNC(=N)N)NC(=O)CCCCCNC(=O)[C@@H](N)CCCNC(=N)N)C(=O)NCCCCCC(=O)NCCC(=O)O | Escherichia coli |  | ATCC 25922 | 1 h, 37 °C, after 90% human serum | > 192 µM
CC1(C)SC2C(NC(=O)C(NC(=O)C3=C(O)C(Cc4ccc([N+](=O)[O-])cc4)NC3=O)c3ccccc3)C(=O)N2C1C(=O)O (stereo not shown) | Escherichia coli | broth microdilution | Keio mutant JW0146-2 | 18 h, ferric hydroxamate uptake gene | 50 µg/mL
N=C(N)NCCC[C@H](NC(=O)CN)C(=O)N[C@@H](Cc1c[nH]c2ccccc12)C(=O)N[C@@H](CCCNC(=N)N)C(=O)N[C@@H](Cc1c[nH]c2ccccc12)C(=O)N[C@@H](Cc1c[nH]c2ccccc12)C(=O)N[C@@H](Cc1c[nH]c2ccccc12)C(=O)N[C@@H](CCCNC(=N)N)C(=O)N[C@@H](Cc1c[nH]c2ccccc12)C(=O)N[C@@H](CCCNC(=N)N)C(=O)N[C@@H](Cc1ccccc1)C(N)=O | Candida albicans | broth microdilution | 58288, RPMI 1640-MOPS | 48 h, 30 °C | 8 µM
CC1(C)SC2C(NC(=O)C(NC(=O)C3=C(O)C4(CC4)NC3=O)c3ccccc3)C(=O)N2C1C(=O)O (stereo not shown) | Escherichia coli | broth microdilution | Keio mutant JW5195-1 | 18 h | 50 µg/mL
CC(C)C[C@H](NC(=O)[C@H](CCCNC(=N)N)NC(=O)[C@H](Cc1c[nH]c2ccccc12)NC(=O)[C@H](CCCNC(=N)N)NC(=O)[C@H](Cc1c[nH]c2ccccc12)NC(=O)[C@H](Cc1c[nH]c2ccccc12)NC(=O)[C@H](Cc1c[nH]c2ccccc12)NC(=O)[C@H](CCCNC(=N)N)NC(=O)[C@H](Cc1c[nH]c2ccccc12)NC(=O)[C@H](CCCNC(=N)N)NC(=O)CN)C(N)=O | Candida albicans | broth microdilution | 14936, RPMI 1640-MOPS | 48 h, 30 °C | 16 µM
CCCCCCCCCC(=O)N[C@@H](Cc1c[nH]c2ccccc12)C(=O)N[C@H](CC(N)=O)C(=O)N[C@@H](CC(=O)O)C(=O)N[C@@H]1C(=O)NCC(=O)N[C@@H](CCCN)C(=O)N[C@@H](CC(=O)O)C(=O)N[C@H](C)C(=O)N[C@@H](CC(=O)O)C(=O)NCC(=O)N[C@H](CO)C(=O)N[C@@H]([C@H](C)CC(=O)O)C(=O)N[C@@H](CC(=O)c2ccccc2N)C(=O)O[C@@H]1C | Staphylococcus aureus | broth microdilution | VISA LIM strain 2, Mueller-Hinton broth, Mg2+ 10 mg/L | 16 h, together with: Ca2+ 0 mM | > 128 µg/mL
N=C(N)NCCC[C@H](NC(=O)[C@H](Cc1c[nH]c2ccccc12)NC(=O)[C@H](CCCNC(=N)N)NC(=O)[C@H](Cc1c[nH]c2ccccc12)NC(=O)[C@H](Cc1c[nH]c2ccccc12)NC(=O)[C@H](Cc1c[nH]c2ccccc12)NC(=O)[C@H](CCCNC(=N)N)NC(=O)[C@H](Cc1c[nH]c2ccccc12)NC(=O)[C@H](CCCNC(=N)N)NC(=O)CN)C(N)=O | Candida albicans | broth microdilution | 56214, RPMI 1640-MOPS | 48 h, 30 °C | 8 µM
CC(C)C[C@@H](NC(=O)[C@H](C)NC(=O)CNC(=O)[C@@H](NC=O)C(C)C)C(=O)N[C@@H](C)C(=O)N[C@@H](C(=O)N[C@H](C(=O)N[C@@H](C(=O)N[C@@H](Cc1c[nH]c2ccccc12)C(=O)N[C@H](CC(C)C)C(=O)N[C@@H](Cc1cc2ccccc2[nH]1)C(=O)N[C@H](CC(C)C)C(=O)N[C@@H](Cc1c[nH]c2ccccc12)C(=O)N[C@H](CC(C)C)C(=O)N[C@@H](Cc1c[nH]c2ccccc12)C(=O)NCCO)C(C)C)C(C)C)C(C)C | Listeria monocytogenes | broth microdilution | 10403S |  | 2.1 µM
N=C(N)NCCC[C@H](NC(=O)[C@H](Cc1c[nH]c2ccccc12)NC(=O)[C@H](CCCNC(=N)N)NC(=O)[C@H](Cc1c[nH]c2ccccc12)NC(=O)[C@H](Cc1c[nH]c2ccccc12)NC(=O)[C@H](Cc1c[nH]c2ccccc12)NC(=O)[C@H](CCCNC(=N)N)NC(=O)[C@H](Cc1c[nH]c2ccccc12)NC(=O)[C@@H](N)CCCNC(=N)N)C(=O)N[C@@H](Cc1ccccc1)C(N)=O | Candida albicans | broth microdilution | SP3931, RPMI 1640-MOPS | 48 h, 30 °C | 8 µM
CC[C@H](C)[C@H](NC(=O)[C@@H](NC(=O)[C@H](Cc1ccccc1)NC(=O)CNC(=O)[C@H](CCC(N)=O)NC(=O)[C@H](CCCCN)NC(=O)[C@H](C)N)C(C)C)C(=O)N[C@@H](Cc1ccc(O)cc1)C(=O)N[C@@H](CCCNC(=N)N)C(=O)N[C@H](C(=O)N[C@@H](CCCNC(=N)N)C(=O)N[C@H](C(=O)N[C@@H](CCCNC(=N)N)C(=O)N[C@@H](CCCNC(=N)N)C(=O)NCC(=O)N[C@@H](CC(N)=O)C(=O)N[C@@H](CCCNC(=N)N)C(=O)N[C@@H](CCCCN)C(N)=O)C(C)C)C(C)C | Listeria monocytogenes | broth dilution | KCTC 13064 |  | > 100 µM
C[C@H](NC(=O)[C@H](CCCNC(=N)N)NC(=O)[C@H](Cc1c[nH]c2ccccc12)NC(=O)[C@H](CCCNC(=N)N)NC(=O)[C@H](Cc1c[nH]c2ccccc12)NC(=O)[C@H](Cc1c[nH]c2ccccc12)NC(=O)[C@H](Cc1c[nH]c2ccccc12)NC(=O)[C@H](CCCNC(=N)N)NC(=O)[C@H](Cc1c[nH]c2ccccc12)NC(=O)[C@H](CCCNC(=N)N)NC(=O)CN)C(N)=O | Candida albicans | broth microdilution | CGMCC 2.209, RPMI 1640-MOPS | 48 h, 30 °C, together with: ZnCl2 8 µM | 8 µM
CC1(C)SC2C(NC(=O)C(NC(=O)C3=C(O)CNC3=O)c3ccccc3)C(=O)N2C1C(=O)O (stereo not shown) | Escherichia coli | broth microdilution | Keio mutant JW0587-1 | 18 h, enterobactin-related gene | 50 µg/mL
N=C(N)c1ccc(OCc2ccccc2COc2ccc(C(=N)N)cc2)cc1 | Escherichia coli |  | mcr-1 | 20 h, compound alone | > 200 µg/mL

Excerpt of the above:
Structure (SMILES) | organism | assay | system | conditions | MIC
CC(C)C[C@H](NC(=O)[C@H](CCCNC(=N)N)NC(=O)[C@H](Cc1c[nH]c2ccccc12)NC(=O)[C@H](CCCNC(=N)N)NC(=O)[C@H](Cc1c[nH]c2ccccc12)NC(=O)[C@H](Cc1c[nH]c2ccccc12)NC(=O)[C@H](Cc1c[nH]c2ccccc12)NC(=O)[C@H](CCCNC(=N)N)NC(=O)[C@H](Cc1c[nH]c2ccccc12)NC(=O)[C@H](CCCNC(=N)N)NC(=O)CN)C(N)=O | Candida albicans | broth microdilution | 14936, RPMI 1640-MOPS | 48 h, 30 °C | 16 µM
CC1(C)SC2C(NC(=O)C(NC(=O)C3=C(O)C(c4ccccc4)NC3=O)c3ccccc3)C(=O)N2C1C(=O)O (stereo not shown) | Escherichia coli | broth microdilution | Keio mutant JW5195-1 | 18 h | 12.5 µg/mL
